Assay results of several laboratories.
Lines come from different studies, so protocols differ. Numbers after ± are the reported error. No end group written: not given here.
CHRM1: Muscarinic acetylcholine receptor M1 (CHRM1, Homo sapiens, UniProt P11229)
UniProt P11229, sequence (whole entry, looked up): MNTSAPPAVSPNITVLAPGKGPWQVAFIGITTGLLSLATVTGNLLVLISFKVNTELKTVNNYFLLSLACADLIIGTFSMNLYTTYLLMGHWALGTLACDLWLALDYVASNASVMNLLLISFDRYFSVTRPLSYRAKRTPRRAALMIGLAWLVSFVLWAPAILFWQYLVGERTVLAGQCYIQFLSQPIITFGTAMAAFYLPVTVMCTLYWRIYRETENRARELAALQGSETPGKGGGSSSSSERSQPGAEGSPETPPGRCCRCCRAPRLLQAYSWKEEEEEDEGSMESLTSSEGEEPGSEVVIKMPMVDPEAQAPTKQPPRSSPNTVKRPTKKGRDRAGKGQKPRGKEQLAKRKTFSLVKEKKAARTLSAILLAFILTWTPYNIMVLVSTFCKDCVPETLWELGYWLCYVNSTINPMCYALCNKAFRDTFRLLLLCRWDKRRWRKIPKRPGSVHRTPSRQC
CHRM4: Muscarinic acetylcholine receptor M4 (CHRM4, Homo sapiens, UniProt P08173)
UniProt P08173, sequence (whole entry, looked up): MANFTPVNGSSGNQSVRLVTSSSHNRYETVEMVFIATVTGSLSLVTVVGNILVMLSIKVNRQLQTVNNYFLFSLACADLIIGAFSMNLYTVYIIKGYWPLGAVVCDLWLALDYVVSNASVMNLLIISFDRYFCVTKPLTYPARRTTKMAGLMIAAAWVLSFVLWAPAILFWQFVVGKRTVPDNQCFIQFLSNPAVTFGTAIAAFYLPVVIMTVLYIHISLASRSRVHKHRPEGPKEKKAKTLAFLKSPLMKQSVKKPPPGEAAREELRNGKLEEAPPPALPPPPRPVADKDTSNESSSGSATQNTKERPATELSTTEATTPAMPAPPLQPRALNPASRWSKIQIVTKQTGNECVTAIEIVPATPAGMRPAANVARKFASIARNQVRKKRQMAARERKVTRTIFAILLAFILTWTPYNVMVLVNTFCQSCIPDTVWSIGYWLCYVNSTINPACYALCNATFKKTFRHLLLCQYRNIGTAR
SCN10A: Sodium channel protein type 10 subunit alpha (SCN10A, Homo sapiens, UniProt Q9Y5Y9)
UniProt Q9Y5Y9, sequence (whole entry, looked up): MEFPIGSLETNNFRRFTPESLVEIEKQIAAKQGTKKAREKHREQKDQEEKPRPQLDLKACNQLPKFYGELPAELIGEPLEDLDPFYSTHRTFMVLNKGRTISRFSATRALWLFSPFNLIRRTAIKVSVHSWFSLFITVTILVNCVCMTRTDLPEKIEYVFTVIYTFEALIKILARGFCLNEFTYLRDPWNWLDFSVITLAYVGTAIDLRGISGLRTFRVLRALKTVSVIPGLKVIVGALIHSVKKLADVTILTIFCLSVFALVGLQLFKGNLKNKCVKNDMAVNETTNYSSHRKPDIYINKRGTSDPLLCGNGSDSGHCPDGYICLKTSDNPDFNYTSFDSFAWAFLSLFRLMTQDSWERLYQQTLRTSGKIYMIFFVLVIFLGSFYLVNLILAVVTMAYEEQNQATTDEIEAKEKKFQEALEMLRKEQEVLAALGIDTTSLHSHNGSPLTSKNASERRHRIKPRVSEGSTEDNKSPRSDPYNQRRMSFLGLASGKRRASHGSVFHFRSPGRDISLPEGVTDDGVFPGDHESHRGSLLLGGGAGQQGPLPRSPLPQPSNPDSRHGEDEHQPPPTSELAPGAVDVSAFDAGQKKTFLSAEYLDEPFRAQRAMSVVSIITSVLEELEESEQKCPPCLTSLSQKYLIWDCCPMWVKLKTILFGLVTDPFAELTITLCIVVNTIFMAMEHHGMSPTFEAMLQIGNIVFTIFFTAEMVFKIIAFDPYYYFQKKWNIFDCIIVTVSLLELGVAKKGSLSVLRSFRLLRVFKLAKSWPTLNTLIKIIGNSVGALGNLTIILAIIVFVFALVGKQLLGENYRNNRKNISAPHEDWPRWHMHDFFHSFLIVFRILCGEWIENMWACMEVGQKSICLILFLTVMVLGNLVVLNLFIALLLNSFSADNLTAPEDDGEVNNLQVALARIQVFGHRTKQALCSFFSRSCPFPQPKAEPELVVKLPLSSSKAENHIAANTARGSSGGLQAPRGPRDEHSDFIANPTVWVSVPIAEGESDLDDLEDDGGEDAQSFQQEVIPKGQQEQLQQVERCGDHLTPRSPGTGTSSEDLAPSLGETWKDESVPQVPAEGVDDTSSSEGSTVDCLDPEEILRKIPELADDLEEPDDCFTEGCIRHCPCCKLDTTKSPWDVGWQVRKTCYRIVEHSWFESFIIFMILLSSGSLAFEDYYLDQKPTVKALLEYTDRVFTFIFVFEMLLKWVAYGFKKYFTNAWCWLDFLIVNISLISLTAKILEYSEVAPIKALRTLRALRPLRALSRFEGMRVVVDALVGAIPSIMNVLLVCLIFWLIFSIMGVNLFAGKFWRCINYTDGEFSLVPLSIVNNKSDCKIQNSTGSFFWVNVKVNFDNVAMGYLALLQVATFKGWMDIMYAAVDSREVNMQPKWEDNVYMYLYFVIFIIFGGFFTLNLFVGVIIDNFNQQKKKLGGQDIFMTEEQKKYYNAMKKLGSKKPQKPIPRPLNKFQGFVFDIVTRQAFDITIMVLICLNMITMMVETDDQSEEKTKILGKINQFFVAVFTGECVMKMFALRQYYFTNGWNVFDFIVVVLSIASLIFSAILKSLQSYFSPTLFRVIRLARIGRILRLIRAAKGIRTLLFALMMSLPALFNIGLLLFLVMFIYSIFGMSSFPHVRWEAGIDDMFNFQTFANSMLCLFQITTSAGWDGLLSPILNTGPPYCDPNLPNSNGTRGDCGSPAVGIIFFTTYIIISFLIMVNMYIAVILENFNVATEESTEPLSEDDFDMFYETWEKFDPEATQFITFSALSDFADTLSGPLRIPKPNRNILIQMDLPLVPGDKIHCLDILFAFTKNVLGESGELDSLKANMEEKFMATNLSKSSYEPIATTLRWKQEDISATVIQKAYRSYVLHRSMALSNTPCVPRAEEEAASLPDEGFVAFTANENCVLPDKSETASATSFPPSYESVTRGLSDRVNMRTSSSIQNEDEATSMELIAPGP
T1: DNA G4, G-quadruplex (Homo sapiens); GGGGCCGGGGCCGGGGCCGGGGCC
B1: side-chain stapled; chain GGRTKQEARKSTGG (also: sidechain bridge or staple (positions not given here))
UniProt P42336, sequence (whole entry, unmodified, looked up): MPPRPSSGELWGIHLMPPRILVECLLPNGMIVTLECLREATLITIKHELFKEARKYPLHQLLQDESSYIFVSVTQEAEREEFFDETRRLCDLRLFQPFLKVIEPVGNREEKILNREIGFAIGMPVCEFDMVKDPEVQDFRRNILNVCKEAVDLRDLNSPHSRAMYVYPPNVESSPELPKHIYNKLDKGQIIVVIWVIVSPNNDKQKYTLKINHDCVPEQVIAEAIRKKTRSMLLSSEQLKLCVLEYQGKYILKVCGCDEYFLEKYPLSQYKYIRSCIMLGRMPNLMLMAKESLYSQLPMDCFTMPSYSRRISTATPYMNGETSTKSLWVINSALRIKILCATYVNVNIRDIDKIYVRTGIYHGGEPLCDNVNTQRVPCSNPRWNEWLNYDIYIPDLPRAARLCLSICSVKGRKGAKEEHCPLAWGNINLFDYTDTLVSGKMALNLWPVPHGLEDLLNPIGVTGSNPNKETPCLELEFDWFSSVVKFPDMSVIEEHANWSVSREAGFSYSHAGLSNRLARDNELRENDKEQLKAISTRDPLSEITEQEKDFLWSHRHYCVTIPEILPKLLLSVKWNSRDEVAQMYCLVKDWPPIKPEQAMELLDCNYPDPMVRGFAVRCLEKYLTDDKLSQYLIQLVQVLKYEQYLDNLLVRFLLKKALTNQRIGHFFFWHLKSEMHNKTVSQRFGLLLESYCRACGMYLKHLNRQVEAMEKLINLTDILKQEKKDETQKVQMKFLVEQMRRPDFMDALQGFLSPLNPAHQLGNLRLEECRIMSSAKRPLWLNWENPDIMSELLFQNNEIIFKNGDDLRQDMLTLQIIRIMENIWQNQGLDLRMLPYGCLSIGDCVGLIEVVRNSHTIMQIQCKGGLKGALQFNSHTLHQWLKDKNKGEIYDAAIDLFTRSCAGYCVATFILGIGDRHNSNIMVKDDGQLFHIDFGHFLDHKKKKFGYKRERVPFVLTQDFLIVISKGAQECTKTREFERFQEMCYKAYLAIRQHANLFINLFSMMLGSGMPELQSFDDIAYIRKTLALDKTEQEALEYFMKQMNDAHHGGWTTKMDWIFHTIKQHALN
UniProt Q8WTS6, sequence (whole entry, looked up): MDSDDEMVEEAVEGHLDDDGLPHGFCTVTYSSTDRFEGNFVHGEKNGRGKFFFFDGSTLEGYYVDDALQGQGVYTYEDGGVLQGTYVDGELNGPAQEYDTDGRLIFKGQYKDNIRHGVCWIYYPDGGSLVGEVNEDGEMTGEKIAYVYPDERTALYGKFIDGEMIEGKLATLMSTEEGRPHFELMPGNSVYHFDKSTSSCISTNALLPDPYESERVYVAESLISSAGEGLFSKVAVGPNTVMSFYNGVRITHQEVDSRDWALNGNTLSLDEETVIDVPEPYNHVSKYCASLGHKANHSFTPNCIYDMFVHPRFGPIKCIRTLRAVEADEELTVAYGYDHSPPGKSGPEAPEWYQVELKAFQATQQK
UniProt Q9D3A9, sequence (whole entry, looked up): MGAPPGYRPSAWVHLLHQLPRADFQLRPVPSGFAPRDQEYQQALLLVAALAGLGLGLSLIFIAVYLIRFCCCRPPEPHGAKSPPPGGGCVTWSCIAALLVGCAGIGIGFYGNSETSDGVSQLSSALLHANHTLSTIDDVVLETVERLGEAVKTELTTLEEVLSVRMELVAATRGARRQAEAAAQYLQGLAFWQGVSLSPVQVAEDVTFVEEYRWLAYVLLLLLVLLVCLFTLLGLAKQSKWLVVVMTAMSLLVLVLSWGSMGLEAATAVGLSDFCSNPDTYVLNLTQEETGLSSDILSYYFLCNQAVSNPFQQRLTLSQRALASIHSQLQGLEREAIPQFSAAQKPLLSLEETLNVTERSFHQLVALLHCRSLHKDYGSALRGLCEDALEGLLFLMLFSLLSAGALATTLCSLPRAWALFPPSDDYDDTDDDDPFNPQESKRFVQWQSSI
UniProt Q13126, sequence (whole entry, looked up): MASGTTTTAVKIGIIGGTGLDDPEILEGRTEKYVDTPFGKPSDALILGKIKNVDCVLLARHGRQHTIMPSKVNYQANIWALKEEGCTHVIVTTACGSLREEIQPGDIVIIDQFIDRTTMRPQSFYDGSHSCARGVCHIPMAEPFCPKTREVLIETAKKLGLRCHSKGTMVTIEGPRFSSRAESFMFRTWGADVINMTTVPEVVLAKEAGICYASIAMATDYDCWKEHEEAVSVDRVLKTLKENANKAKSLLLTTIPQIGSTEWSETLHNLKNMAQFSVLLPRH

Cn1cc(-c2ccc(COc3ccccc3-c3cc(=O)n(C4CCCCC4O)cn3)c(F)c2)cn1 (stereo not shown)
change in baseline activity (CHRM1; allosteric agonist, IP1 accumulation; CHO-M1 cells; 1 µM, unit not given; reference: maximum ACh response): 46.8 ± 3.7

C=CC(=O)N1CCC(COCC(=O)N2CCN(c3nc(-c4cnc(N)nc4C(F)F)nc(N4CCOC[C@@H]4C)n3)CC2)CC1
kinact/KI (PIK3CA (Homo sapiens, UniProt P42336); covalent inhibitor): > 200000 M⁻¹ s⁻¹

CCCCCCO
binding heat capacity change (Major urinary protein 1 (Mup1, Mus musculus, UniProt P11588); isothermal titration calorimetry; concentration not given, pH 7.4, 278-308 K): -553 ± 15 J/(K·mol)

O=C(Nc1nc2cccnc2s1)c1cnccn1
activity (CHRM4; calcium mobilization, positive allosteric modulator; CHO expressing hM4 and Gqi5; concentration not given, added: acetylcholine EC20): inactive

CSC[C@H]1CN(Cc2c[nH]c3c(N)ncnc23)C[C@@H]1O
coupling free energy (MTAP (Homo sapiens, UniProt Q13126); binding, thermodynamic cycle; added: phosphate): -3.6 kcal/mol

CC(C(=O)O)c1ccc(-c2ccccc2)c(F)c1 (stereo not shown)
current change (unc-8 (Caenorhabditis elegans, UniProt Q21974, G387E); ion current, two-electrode voltage clamp; Xenopus oocytes coexpressing MEC-2; 30 µM, -85 mV; reference: uninjected oocytes, positive = inhibition): 0.22 µA

Cc1ccc(COc2ccccc2-c2cc(=O)n(C3CCCCC3O)cn2)cn1 (stereo not shown)
change in baseline activity (CHRM1; allosteric agonist, IP1 accumulation; CHO-M1 cells; 10 µM, unit not given; reference: maximum ACh response): 42.6 ± 3.2

CC1(C)c2cc(CC(=O)c3ccc(O)cc3O)c(O)cc2OC1CO (stereo not shown)
concentration doubling activity (quinone reductase; inducer; Hepa1c1c7): 19.6 µM

CC(=O)Cc1cc2c(c(O)c1C(=O)O)-c1c(c(O)c3oc4c(O[C@@H]5OC(C(=O)O)=C[C@H](O)[C@H]5O)cccc4c(=O)c3c1O)CC2
Kd (T1, DNA G4, G-quadruplex (Homo sapiens); fluorescence intensity titration; pH 6.8, KCl 8 mM, one site with Hill slope): 2200 µM

CCCN(Cc1ccncc1F)C(=O)c1cc(C)c(C)s1
Ca2+-ATPase activity (ATP2A2 (Sus scrofa, UniProt P11607); enzyme activity, NADH-coupled; porcine cardiac SR vesicles; up to 50 µM): inactive

Brc1ccc2cc[nH]c2c1
conversion (Dehaloperoxidase B, ferric (Amphitrite ornata, UniProt Q9NAV7); substrate, HPLC; 5% methanol; 5 min, pH 7, 25 °C, enzyme 10 µM, added: H2O2 500 µM): 34.4%

COC(=O)c1scc(C)c1NC(=O)CN1CCN(C(C)C)CC1
capacity factor k′ (SCN10A; cell membrane chromatography; higher = stronger binding): 1.4

NCc1cccc(C2CCN(C(=O)c3cccc(OCC(=O)C4(O)CCC4)c3)CC2)c1
remaining activity (Tryptase beta-1 (Homo sapiens, UniProt Q15661); inhibitor; 10 µM, 9 d, enzyme 100 nM, unbound removed): < 25%

Cc1ccc(O)c([C@H](CCN(C(C)C)C(C)C)c2ccccc2)c1
Hill coefficient (SCN5A (Homo sapiens, UniProt Q14524); sodium current, inhibitor, IonWorks Quattro): 1.08

C[C@@H]1CN(Cc2ccc3c(c2)c(=O)c(C(N)=O)cn3-c2ccc(F)cc2)C[C@H](C)O1
activity (Grm3 (Rattus norvegicus, UniProt P31422); antagonist, calcium mobilization; up to 30 µM, added: glutamate EC80): inactive

B1
methylation conversion (SETD7 (Homo sapiens, UniProt Q8WTS6); peptide methylation, substrate, MALDI-TOF MS; 10 µM, 3 h, pH 8.0, 37 °C, enzyme 500 nM, added: SAM 30 µM): ~65%

CCCSc1nc2c([nH]1)c(=O)n(C)c(=O)n2C
remaining activity (PGR (Homo sapiens, UniProt P06401); reporter gene, antagonist, MMTV-luciferase; T47D/A1-2; 10 µM, 24 h, added: 5 nM progesterone; reference: maximal activity): 89%

COc1cc2c(cc1OC)-c1c/c(=N\c3c(C)cc(C)cc3C)n(C)c(=O)n1CC2
IC50 (PDE1A (Homo sapiens, UniProt P54750); cGMP hydrolysis, inhibitor; up to 50 µM): inactive

Cc1cc(F)c(Nc2ncnc3cc(OCc4ccccc4)ccc23)cc1O
maximal ATPase stimulation (ABCG2 (Homo sapiens, UniProt Q9UNQ0); vanadate-sensitive ATPase activity, activator; membrane vesicles; unit not given; reference: basal): 3.18

CC(C)C[C@H](NC(=O)[C@@H]1CSSC[C@H](NC(=O)[C@H](Cc2c[nH]cn2)NC(=O)[C@H](Cc2c[nH]c3ccccc23)NC(=O)[C@H](CCCCNC(=O)CNC(=O)CCC(C(=O)O)N2CCN(CC(=O)O)CCN(CC(=O)O)CC2)NC(=O)CCC(C(=O)O)N2CCN(CC(=O)O)CCN(CC(=O)O)CC2)C(=O)N[C@@H]([C@@H](C)O)C(=O)N[C@@H]([C@@H](C)O)C(=O)N[C@@H](CCCCNC(=O)CNC(=O)CCC(C(=O)O)N2CCN(CC(=O)O)CCN(CC(=O)O)CC2)C(=O)N[C@@H](Cc2ccccc2)C(=O)N2CCC[C@H]2C(=O)N[C@@H](Cc2c[nH]cn2)C(=O)N[C@@H](Cc2c[nH]cn2)C(=O)N[C@@H](Cc2ccc(O)cc2)C(=O)N1)C(=O)N[C@@H](Cc1ccc(O)cc1)C(=O)N[C@@H](Cc1ccc(-c2ccccc2)cc1)C(N)=O (stereo partly shown) [gallium-68 labelled]
lung uptake (Col1a1/Col1a2 (Mus musculus, UniProt P11087+Q01149); ex vivo gamma counting; mouse bleomycin pulmonary fibrosis, lung; dose not given, 150 min post injection, bleomycin 2.5 U/kg, day 7): 0.028 ± 0.005 %ID/lung

CCn1cc(-c2ccc(COc3ccccc3-c3cc(=O)n(C4CCCCC4O)cn3)cc2)cn1 (stereo not shown)
change in baseline activity (CHRM1; allosteric agonist, IP1 accumulation; CHO-M1 cells; 10 µM, unit not given; reference: maximum ACh response): 82 ± 3

O=c1cc(-c2ccccc2)oc2cc(O)c(O)c(O)c12
IC50 ratio (KDM4E (Homo sapiens, UniProt B2RXH2); inhibitor, FDH-coupled; reference: 20 µM over 2.5 µM ferrous ammonium sulfate): 3.9

CCCNC(C)C(=O)Nc1c(C)csc1C(=O)OCCC (stereo not shown)
capacity factor k′ (SCN10A; cell membrane chromatography; higher = stronger binding): 29

COc1cc2c(cc1OC)CN(CCc1ccc(NC(=O)c3cc(OC)c(OC)cc3NC(=O)c3cnc4ccccc4c3)cc1)CC2
brain [11C]Ko143 uptake (Abcb1a (Mus musculus, UniProt P21447); inhibitor, PET; wild-type mice; i.v., 15 mg/kg, 2 h before PET, added: [11C]Ko143): increased

COC(=O)[C@H](c1ccccc1Cl)N1CCc2sccc2C1
receptor occupancy (P2Y purinoceptor 12 (P2ry12, Rattus norvegicus, UniProt Q9EPX4); rat; oral, 10 mg/kg): 19.7 ± 3.1%

COc1ccc(C)c2sc(NC(C)=O)nc12
activity (CHRM4; calcium mobilization, positive allosteric modulator; CHO expressing hM4 and Gqi5; concentration not given, added: acetylcholine EC20): inactive

O=S(=O)(C1CC2OC1C(c1ccc(O)cc1)=C2c1ccc(O)cc1)N(CC(F)(F)F)c1ccc(Cl)cc1 (stereo not shown)
efficacy (ESR2 (Homo sapiens, UniProt Q92731); reporter gene, antagonist; HepG2; added: estradiol 10 nM; reference: E2 response, negative is inverse agonism): 7 ± 2%

O=c1cc(-c2ccccc2OCc2ccc(-c3nccs3)cc2)ncn1C1CCCCC1O (stereo not shown)
ΔpEC50 of ACh (CHRM1; positive allosteric modulator, IP1 accumulation; CHO-M1 cells; 1 µM, 60 min, 37 °C, added: ACh; reference: ACh alone, higher = stronger potentiation): 1.01 ± 0.12 log units

COc1ccc(C)c2sc(NS(=O)(=O)c3cccc(Cl)c3)nc12
activity (CHRM4; calcium mobilization, positive allosteric modulator; CHO expressing hM4 and Gqi5; concentration not given, added: acetylcholine EC20): inactive

CCCCN1CCN(C(C)C(=O)Nc2c(C)csc2C(=O)OC)CC1 (stereo not shown)
capacity factor k′ (SCN10A; cell membrane chromatography; higher = stronger binding): 122

O=C(Nc1nc2cccnc2s1)C1CCC1
activity (CHRM4; calcium mobilization, positive allosteric modulator; CHO expressing hM4 and Gqi5; concentration not given, added: acetylcholine EC20): inactive

CCc1c(C)n(Cc2ccc(-c3ccccc3C(=O)O)cc2)c2ccccc12
Emax (PPARG (Homo sapiens, UniProt P37231); COS-7; 10 µM, 39 h): 39.2%

Cn1cc(-c2ccc(COc3ccccc3-c3cc(=O)n(C4CCCCC4O)cn3)cc2)cn1 (stereo not shown)
change in baseline activity (CHRM1; allosteric agonist, IP1 accumulation; CHO-M1 cells; 1 µM, unit not given; reference: maximum ACh response): 55.1 ± 2.4

DYKDEDLL
limit of detection (anti-FLAG M2 antibody; antibody binding, on-chip peptide display; peptide; 45 min, 25 °C): 0.14 nM

Cn1cc(-c2ccc(COc3ccccc3-c3cc(=O)n(C4CCCCC4O)cn3)cn2)cn1 (stereo not shown)
change in baseline activity (CHRM1; allosteric agonist, IP1 accumulation; CHO-M1 cells; 1 µM, unit not given; reference: maximum ACh response): 36 ± 3.3

O=C(Nc1ncnc2c1ncn2[C@@H]1O[C@@H]2COP(=O)(O)OC2C1O)c1ccccc1 (stereo in doubt)
selectivity ratio (cAMP-dependent protein kinase type II-beta regulatory subunit, holoenzyme with catalytic subunit (Prkar2b, Rattus norvegicus, UniProt P12369, S112A); PKA holoenzyme activation, activator, fluorescence anisotropy; reference: RIIβ over RIα, higher = RIIβ-selective): 4.9

COc1ccc(COc2ccccc2-c2cc(=O)n(C3CCCCC3O)cn2)cc1 (stereo not shown)
ΔpEC50 of ACh (CHRM1; positive allosteric modulator, IP1 accumulation; CHO-M1 cells; 10 µM, 60 min, 37 °C, added: ACh; reference: ACh alone, higher = stronger potentiation): 1.47 ± 0.22 log units

CC(C)C[C@H](N)C(=O)N1CCC[C@@H](NCC(N)=O)C1
selectivity ratio (Papain (Carica papaya, UniProt P00784); inhibitor; reference: Ki papain over Ki IdeS): ≥ 267 fold

O=c1cc(N2CCOCC2)oc2c(OCc3ccccc3)cccc12
fold change in selectivity (PIK3CA (Homo sapiens, UniProt P42336, Q859D); enzyme activity; concentration not given, Gln-Asp swap; reference: wild type): 2.9

C=CC(=O)NCCCC[C@H](NC(=O)OCc1ccccc1)C(=O)N1CCN(c2ccccc2Cl)CC1
kinact (TGM2 (Homo sapiens, UniProt P21980); pH 6.5): 0.0162 s⁻¹

N[C@@H](CCC(=O)O)C(=O)O
permeability ratio (Protein tweety homolog 1 (Ttyh1, Mus musculus, UniProt Q9D3A9); permeant anion, whole-cell patch clamp; HEK-293T co-expressing AQP4; 70 mM, hypo-osmotic solution; reference: compound over chloride): ~0.26

O=c1cc(-c2ccccc2OCc2ccc(Cl)nc2)ncn1C1CCCCC1O (stereo not shown)
change in baseline activity (CHRM1; allosteric agonist, IP1 accumulation; CHO-M1 cells; 10 µM, unit not given; reference: maximum ACh response): 41.1 ± 2.4

N#Cc1cnc(Nc2nc3ccccc3o2)nc1-c1ccc(F)cc1
maximal response (Grm5 (Rattus norvegicus, UniProt P31424); calcium mobilization, negative allosteric modulator; added: glutamate EC80; reference: maximal glutamate response): 1.7 ± 0.1%

A few entries again:
COc1ccc(C)c2sc(NC(C)=O)nc12
activity (CHRM4; calcium mobilization, positive allosteric modulator; CHO expressing hM4 and Gqi5; concentration not given, added: acetylcholine EC20): inactive

O=S(=O)(C1CC2OC1C(c1ccc(O)cc1)=C2c1ccc(O)cc1)N(CC(F)(F)F)c1ccc(Cl)cc1 (stereo not shown)
efficacy (ESR2 (Homo sapiens, UniProt Q92731); reporter gene, antagonist; HepG2; added: estradiol 10 nM; reference: E2 response, negative is inverse agonism): 7 ± 2%

O=c1cc(-c2ccccc2OCc2ccc(-c3nccs3)cc2)ncn1C1CCCCC1O (stereo not shown)
ΔpEC50 of ACh (CHRM1; positive allosteric modulator, IP1 accumulation; CHO-M1 cells; 1 µM, 60 min, 37 °C, added: ACh; reference: ACh alone, higher = stronger potentiation): 1.01 ± 0.12 log units
